Results pooled from the literature.
Parts stem from different laboratories: compare values within a part only.
Chain of UniProt Q8TDC3 (whole entry, looked up): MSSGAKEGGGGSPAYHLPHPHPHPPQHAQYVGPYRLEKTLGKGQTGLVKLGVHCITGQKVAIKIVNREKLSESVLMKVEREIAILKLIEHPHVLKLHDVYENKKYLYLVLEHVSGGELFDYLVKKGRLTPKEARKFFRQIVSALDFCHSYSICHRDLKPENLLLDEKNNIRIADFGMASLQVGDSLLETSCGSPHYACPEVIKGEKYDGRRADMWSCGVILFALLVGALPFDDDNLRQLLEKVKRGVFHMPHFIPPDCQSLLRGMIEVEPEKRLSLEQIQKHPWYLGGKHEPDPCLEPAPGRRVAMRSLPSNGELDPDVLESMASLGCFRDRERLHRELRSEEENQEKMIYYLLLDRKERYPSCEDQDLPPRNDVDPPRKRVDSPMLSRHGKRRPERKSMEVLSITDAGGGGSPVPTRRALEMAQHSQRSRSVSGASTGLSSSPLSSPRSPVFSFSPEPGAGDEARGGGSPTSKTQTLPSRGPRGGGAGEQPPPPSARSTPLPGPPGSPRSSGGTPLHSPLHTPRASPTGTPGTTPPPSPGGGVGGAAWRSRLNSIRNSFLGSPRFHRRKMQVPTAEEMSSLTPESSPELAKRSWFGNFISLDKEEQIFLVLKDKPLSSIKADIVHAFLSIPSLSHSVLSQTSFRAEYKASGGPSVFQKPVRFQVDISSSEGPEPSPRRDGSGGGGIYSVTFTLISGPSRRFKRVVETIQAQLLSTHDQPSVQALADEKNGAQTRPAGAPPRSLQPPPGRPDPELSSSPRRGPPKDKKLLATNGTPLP
Chain of UniProt Q8NFD2 (whole entry, looked up): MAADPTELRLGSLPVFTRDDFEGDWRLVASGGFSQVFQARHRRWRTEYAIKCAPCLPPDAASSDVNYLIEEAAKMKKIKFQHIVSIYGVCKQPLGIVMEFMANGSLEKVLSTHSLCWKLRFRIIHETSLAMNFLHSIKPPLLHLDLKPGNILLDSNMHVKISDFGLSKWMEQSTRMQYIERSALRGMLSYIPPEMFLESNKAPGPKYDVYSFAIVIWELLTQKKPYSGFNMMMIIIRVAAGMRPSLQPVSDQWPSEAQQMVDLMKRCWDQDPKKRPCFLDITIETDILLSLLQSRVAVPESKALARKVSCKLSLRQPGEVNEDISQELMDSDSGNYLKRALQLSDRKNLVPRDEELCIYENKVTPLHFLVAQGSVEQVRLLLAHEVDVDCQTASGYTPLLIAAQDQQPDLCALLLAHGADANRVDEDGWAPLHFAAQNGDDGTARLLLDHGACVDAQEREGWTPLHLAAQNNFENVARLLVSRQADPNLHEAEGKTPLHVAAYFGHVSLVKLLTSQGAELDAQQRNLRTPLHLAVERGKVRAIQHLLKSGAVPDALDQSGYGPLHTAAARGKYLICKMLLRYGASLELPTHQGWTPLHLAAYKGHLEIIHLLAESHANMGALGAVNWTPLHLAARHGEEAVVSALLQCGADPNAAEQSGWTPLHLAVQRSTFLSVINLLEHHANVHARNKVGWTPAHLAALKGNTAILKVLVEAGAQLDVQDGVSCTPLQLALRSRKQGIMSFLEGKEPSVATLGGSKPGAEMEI
Chain of UniProt P0C264 (whole entry, looked up): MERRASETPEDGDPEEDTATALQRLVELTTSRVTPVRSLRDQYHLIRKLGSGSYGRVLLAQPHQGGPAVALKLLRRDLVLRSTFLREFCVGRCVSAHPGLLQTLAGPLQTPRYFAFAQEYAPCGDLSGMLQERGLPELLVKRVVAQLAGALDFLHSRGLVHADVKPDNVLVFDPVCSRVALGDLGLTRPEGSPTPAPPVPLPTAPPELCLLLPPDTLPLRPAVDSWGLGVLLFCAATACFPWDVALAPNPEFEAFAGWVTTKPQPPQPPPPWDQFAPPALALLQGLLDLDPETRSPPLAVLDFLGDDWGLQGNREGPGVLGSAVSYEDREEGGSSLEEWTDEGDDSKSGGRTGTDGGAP
Chain of UniProt P11802 (whole entry, looked up): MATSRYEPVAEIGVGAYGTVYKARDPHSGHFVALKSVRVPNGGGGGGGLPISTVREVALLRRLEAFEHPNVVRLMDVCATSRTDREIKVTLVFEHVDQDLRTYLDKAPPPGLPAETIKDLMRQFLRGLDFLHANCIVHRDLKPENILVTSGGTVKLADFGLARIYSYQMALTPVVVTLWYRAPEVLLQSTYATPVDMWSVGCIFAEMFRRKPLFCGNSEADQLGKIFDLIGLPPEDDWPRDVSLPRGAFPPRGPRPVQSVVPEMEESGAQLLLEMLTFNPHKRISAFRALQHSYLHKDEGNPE
Chain of UniProt Q8IW41 (whole entry, looked up): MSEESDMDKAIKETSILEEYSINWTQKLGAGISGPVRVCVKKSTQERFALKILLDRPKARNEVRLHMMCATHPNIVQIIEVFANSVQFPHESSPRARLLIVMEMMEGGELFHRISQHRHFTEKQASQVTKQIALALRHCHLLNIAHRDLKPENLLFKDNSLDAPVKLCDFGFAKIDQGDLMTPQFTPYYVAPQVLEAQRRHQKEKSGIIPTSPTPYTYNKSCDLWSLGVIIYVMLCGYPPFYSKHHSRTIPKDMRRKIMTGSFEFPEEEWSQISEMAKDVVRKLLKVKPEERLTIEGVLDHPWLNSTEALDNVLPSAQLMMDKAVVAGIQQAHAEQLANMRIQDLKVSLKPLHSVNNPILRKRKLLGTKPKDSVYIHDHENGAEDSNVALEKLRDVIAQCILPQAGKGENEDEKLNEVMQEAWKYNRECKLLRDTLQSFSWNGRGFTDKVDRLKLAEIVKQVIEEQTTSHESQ
Chain of UniProt P14616 (whole entry, looked up): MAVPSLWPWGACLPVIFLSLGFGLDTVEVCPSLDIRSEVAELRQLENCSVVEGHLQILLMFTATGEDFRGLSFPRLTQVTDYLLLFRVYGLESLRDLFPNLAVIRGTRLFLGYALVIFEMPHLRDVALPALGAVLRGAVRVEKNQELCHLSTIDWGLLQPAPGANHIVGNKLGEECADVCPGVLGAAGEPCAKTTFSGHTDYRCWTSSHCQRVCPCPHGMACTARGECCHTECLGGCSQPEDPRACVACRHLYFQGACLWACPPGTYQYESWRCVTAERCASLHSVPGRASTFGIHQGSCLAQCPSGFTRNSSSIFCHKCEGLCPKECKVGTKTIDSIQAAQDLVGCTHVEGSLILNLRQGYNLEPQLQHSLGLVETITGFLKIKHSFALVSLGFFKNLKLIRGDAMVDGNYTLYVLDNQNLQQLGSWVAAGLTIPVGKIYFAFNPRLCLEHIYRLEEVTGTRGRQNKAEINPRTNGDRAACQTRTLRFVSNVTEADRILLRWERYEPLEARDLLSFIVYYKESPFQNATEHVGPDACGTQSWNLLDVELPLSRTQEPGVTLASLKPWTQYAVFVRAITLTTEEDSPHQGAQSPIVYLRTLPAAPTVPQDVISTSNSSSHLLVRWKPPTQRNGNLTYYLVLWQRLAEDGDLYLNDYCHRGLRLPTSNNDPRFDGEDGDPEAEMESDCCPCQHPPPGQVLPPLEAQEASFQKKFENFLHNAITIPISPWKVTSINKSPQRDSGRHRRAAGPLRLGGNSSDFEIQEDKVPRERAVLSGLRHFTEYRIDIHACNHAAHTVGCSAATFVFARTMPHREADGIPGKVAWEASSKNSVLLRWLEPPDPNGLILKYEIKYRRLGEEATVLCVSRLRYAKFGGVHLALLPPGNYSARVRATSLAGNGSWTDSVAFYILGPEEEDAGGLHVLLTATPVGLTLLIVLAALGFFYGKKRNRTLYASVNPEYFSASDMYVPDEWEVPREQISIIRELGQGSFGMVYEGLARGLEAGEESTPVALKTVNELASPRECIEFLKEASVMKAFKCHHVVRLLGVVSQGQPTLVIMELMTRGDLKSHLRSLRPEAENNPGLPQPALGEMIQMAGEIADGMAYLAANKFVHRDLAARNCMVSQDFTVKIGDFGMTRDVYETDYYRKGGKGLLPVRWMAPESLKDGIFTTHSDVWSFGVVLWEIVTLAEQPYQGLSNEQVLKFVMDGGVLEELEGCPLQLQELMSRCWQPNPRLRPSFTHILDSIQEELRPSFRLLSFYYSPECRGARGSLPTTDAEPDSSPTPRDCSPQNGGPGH
Chain of UniProt P30530 (whole entry, looked up): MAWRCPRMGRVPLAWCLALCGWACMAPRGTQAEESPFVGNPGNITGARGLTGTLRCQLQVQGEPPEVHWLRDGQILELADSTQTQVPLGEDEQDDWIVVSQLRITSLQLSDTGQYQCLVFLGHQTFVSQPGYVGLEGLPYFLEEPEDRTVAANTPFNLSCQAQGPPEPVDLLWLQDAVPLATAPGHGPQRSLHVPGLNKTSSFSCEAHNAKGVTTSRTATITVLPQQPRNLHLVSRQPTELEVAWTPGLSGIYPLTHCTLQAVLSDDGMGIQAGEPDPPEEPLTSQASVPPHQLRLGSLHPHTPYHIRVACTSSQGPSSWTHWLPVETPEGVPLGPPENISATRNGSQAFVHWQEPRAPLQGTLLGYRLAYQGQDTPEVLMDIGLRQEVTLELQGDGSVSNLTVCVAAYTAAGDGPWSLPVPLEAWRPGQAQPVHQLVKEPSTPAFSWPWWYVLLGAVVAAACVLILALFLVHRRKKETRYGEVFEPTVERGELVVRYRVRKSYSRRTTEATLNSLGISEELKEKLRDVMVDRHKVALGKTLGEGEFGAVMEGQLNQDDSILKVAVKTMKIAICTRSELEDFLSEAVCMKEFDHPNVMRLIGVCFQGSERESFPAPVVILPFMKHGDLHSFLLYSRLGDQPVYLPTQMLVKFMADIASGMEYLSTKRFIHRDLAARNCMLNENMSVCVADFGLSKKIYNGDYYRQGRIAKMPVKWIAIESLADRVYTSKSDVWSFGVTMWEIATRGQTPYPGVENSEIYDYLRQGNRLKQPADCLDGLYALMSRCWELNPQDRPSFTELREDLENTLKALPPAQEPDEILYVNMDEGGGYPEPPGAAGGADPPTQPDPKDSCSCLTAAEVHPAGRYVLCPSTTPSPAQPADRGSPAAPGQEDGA

Set 1
Compound: CS(=O)(=O)N1CCCC(NC(=O)[C@H](CCC2CCCCC2)NC(=O)c2ccc(CNC(=O)c3cnc4ccccn34)cc2)C1 (stereo partly drawn)
Observed: cell-free assay
Method: competition with immobilised ligand
Concentration: 0.1 µM
target	remaining binding [%]
HASPIN (Homo sapiens, UniProt Q8TF76)	74
GRK7 (Homo sapiens, UniProt Q8WTQ7)	91
INSRR (Homo sapiens, UniProt P14616)	100
PIP4K2C (Homo sapiens, UniProt Q8TBX8)	100
MAPKAPK5 (Homo sapiens, UniProt Q8IW41)	100
DAPK1 (Homo sapiens, UniProt P53355)	88
ALK (Homo sapiens, UniProt Q9UM73, L1196M)	94
BRSK1 (Homo sapiens, UniProt Q8TDC3)	72
AXL (Homo sapiens, UniProt P30530)	96
SBK3 (Homo sapiens, UniProt P0C264)	66
Tyrosine-protein kinase ABL1, phosphorylated (ABL1, Homo sapiens, UniProt P00519, H396P)	100
ANKK1 (Homo sapiens, UniProt Q8NFD2)	92
MAP3K15 (Homo sapiens, UniProt Q6ZN16)	100
MET (Homo sapiens, UniProt P08581, Y1235D)	99

Set 2
Compound: c1ccc(-c2n[nH]c3c2oc2ccccc23)cc1
Observed: enzyme activity
Mode: inhibitor
Concentration: 0.5 µM
Baseline: control
target	remaining activity [%]
STK17A (Homo sapiens, UniProt Q9UEE5)	84.4
EPHA4 (Homo sapiens, UniProt P54764)	95.5
Cyclin-dependent kinase 4, with cyclin D3 (CDK4, Homo sapiens, UniProt P11802)	101
CAMK2B (Homo sapiens, UniProt Q13554)	101
DYRK3 (Homo sapiens, UniProt O43781)	93
PDPK1 (Homo sapiens, UniProt O15530)	94.7

Set 3
Organism: Sarcocystis neurona
Observed: parasite growth
Concentration: 10 µM
Compound	inhibition [%]
NCc1ccc(S(N)(=O)=O)cc1	-35.6
OCCN1CCN(CCCN2c3ccccc3Sc3ccc(Cl)cc32)CC1	89.8
CCCc1nc(C(C)(C)O)c(C(=O)OCc2oc(=O)oc2C)n1Cc1ccc(-c2ccccc2-c2nnn[nH]2)cc1	3.7
CCOC(=O)C1=C(C)NC(C)=C(C(=O)OC)C1c1cccc(Cl)c1Cl (stereo not drawn)	-22.8
COC(=O)C1=C(C)NC(C)=C(C(=O)O[C@@H]2CCCN(Cc3ccccc3)C2)[C@@H]1c1cccc([N+](=O)[O-])c1.Cl (racemic)	12.6
S=c1[nH]cnc2nc[nH]c12	26.3
CC1(C)S[C@@H]2[C@H](NC(=O)Cc3ccccc3)C(=O)N2[C@H]1C(=O)[O-].[K+]	-30.9

Set 4
Host: human
Matrix: microsomes or S9
Concentration: 2 µM
Time: 0.5 h
SMILES	remaining compound [%]
CCC[C@@H]1CN(C(=O)c2ccc3c(=O)n(C)cnc3c2)C[C@H]1NC(C)=O	92.2
COC(=O)c1c(CCc2ccc(OC)cc2)nc(CCc2ccccc2)c(O)c1C(=O)OC	5.38
CC(=O)c1ccc(N2CCC(OC(=O)CCc3nnc[nH]3)CC2)cc1	61.8
CNc1nc(NC(C)(C)C)nc(NC(C)(C)C)n1	71.5
Cc1c(C(=O)O)[nH]c(CCNC(=O)OC(C)(C)C)c1S(N)(=O)=O	78.3
COc1ccc(C)cc1/N=c1/[nH]cnc2c1oc1ccccc12	3.73

A few entries again (set 4):
SMILES	remaining compound [%]
COC(=O)c1c(CCc2ccc(OC)cc2)nc(CCc2ccccc2)c(O)c1C(=O)OC	5.38
CNc1nc(NC(C)(C)C)nc(NC(C)(C)C)n1	71.5
COc1ccc(C)cc1/N=c1/[nH]cnc2c1oc1ccccc12	3.73
CC(=O)c1ccc(N2CCC(OC(=O)CCc3nnc[nH]3)CC2)cc1	61.8
Cc1c(C(=O)O)[nH]c(CCNC(=O)OC(C)(C)C)c1S(N)(=O)=O	78.3
